Published values collected from several papers.
Compare with care: the assays were run in different laboratories. ± marks the error that the study gave.

Compound = CCCn1cc(C)c2c(=O)[nH]c(-c3cc(S(=O)(=O)N4CCN(CC)CC4)ccc3OCC)nc21; assay = LC-MS/MS; system = human, plasma; setting = 100 mg, with: alcoholic beverage 0.5 g/kg; quantity = terminal elimination rate constant; result = 0.16 ± 0.0462 h⁻¹
Compound = Cc1cc(-c2nnc(N)nc2-c2ccc(F)cc2)cc(Cl)n1; system = human patients, plasma; setting = oral, 100 mg nanosuspension, single dose, arithmetic mean; quantity = terminal half-life; result = 9.8 h
Compound = COc1nnc2ccc(N3CCC(c4ccc(OCCN5CCN(C)C(=O)[C@H]5C)cc4)CC3)nn12; system = human, plasma; setting = oral, 40 mg once daily, multiple dose, monotherapy; quantity = terminal half-life; result = 4.15 h
Compound = Cc1cc(-c2nccc3c2ccn3CC(=O)Nc2ccc(-c3cnccn3)cn2)ccn1; system = human, plasma; setting = oral, 5 mg once daily, day 16, geometric mean; quantity = terminal half-life; result = 12.2 h
Compound = CN1C(=O)[C@@H](NC(=O)c2nnc(Cc3ccccc3)[nH]2)COc2cccnc21; system = healthy human, fasted, plasma; setting = oral, 800 mg single dose, geometric mean; quantity = terminal half-life; result = 8.47 h
Compound = CN(CC#N)C(=O)C[C@H](Nc1nc2ccccc2[nH]1)c1cccc(C(F)(F)F)c1; system = human; setting = intravenous infusion, 2 mg/kg, 10 mg/mL formulation; quantity = terminal half-life; result = 5.29 ± 1.4 h
Compound = Cl.[2H]C([2H])([2H])CC(=O)c1cnc(NC(=O)C2CC2)cc1Nc1cccc(-c2ncn(C([2H])([2H])[2H])n2)c1OC; system = human, fasted, multiple dose; setting = oral, 10 mg once daily, tablet, day 14, geometric mean; quantity = terminal elimination rate constant; result = 0.075 h⁻¹
Compound = C[C@@]1(c2cc(NC(=O)c3ccc(C#N)cn3)ccc2F)C=CSC(N)=N1; system = elderly humans, both sexes, plasma; setting = oral, 90 mg single dose, mean; quantity = terminal half-life; result = 16.1 h
Compound = CN(C)CCCNC(=O)/C(=C/CCCCC(=O)NO)COc1cccc2ccccc12; system = human patients; setting = intravenous, 312.5 mg/m2, day 1, single dose, mean; quantity = terminal volume of distribution; result = 58.8 L
